Assay results from different studies.
Every numbered part comes from another study and shows a few of its results, in no order. Positions count from the first letter of the parent shown.

Set 1
Target: Histone acetyltransferase KAT6A, winged helix 1, GST fusion (KAT6A, Homo sapiens, UniProt Q92794, residues 1-85)
Method: protein binding microarray
Molecule type: double-stranded DNA, one strand shown
Matrix: in vitro
Tested at: not given
Notes: 8-mer, flanks averaged, mean of 2 arrays, mostly near background
Reference: not given
Direction: higher = stronger binding
Target sequence (chain): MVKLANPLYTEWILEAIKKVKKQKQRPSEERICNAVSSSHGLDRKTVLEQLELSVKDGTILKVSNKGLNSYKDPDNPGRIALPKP
Strand | E-score
CCGTACTC | 0.22
ACAGATGC | -0.126
AACTGCAT | -0.179
GTCCACGA | 0.087
ACGGACAC | 0.103
CTTAAGGA | -0.202
AGGTGTAT | -0.0847
CCAAAAAG | -0.134
CATTCTAA | -0.252
AGGAAAAC | -0.124
AGCCACTG | -0.0553
AATTGAGA | -0.00133
GAATAGCC | 0.0779
AGGCGCCG | 0.401
ACGCGTAG | 0.359
GTTAGCTA | -0.101
CCCAGGCA | -0.25

Set 2
Target: Interferon regulatory factor 7, full length, phosphomimetic (IRF7, Homo sapiens, UniProt Q92985, residues 1-503, S471D/S472D/S475D/S476D/S477D/S483D/S484D/S487D)
Method: protein-binding microarray
Molecule type: double-stranded DNA, one strand shown
Matrix: in vitro
Tested at: 2200 nM top
Notes: 60-bp whole probe
With: salmon DNA 0.4 mg/ml
Reference: random background probes
Direction: higher = stronger binding
All sequences stand within: GCCTAGCAC … GTCTTGATTCGCTTGACGCTGCTG
Residues (chain): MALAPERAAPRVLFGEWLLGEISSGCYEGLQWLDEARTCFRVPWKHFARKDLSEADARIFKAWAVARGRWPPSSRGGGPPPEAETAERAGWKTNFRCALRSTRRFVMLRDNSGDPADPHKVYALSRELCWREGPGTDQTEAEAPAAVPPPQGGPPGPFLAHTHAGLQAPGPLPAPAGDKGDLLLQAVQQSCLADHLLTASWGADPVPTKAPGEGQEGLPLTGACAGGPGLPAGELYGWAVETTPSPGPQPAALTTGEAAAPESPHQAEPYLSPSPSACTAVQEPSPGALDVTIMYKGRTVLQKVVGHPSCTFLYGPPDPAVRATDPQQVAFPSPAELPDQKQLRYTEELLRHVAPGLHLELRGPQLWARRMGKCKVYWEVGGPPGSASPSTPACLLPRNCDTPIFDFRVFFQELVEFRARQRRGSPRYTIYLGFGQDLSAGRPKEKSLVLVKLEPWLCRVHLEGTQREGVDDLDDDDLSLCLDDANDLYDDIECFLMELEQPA
Strand | fitted relative affinity [z-score]
GACGGAATCCTTCTCCTGACGTGCTAG | 0.678
TTAGGGTTCGGGTATCGGTTAGTGCTA | 0.655
GACGGTTTCGGAACTGGGGACGTGCTA | 4.44
TTAGGTATCGACACTGGATTAGTGCTA | 0.0303
TTAGGACTGCTTTTCTTTTAGTGCTAG | 1.4
TTAGGTAGCGGACTGGGTTAGTGCTAG | -0.764
GACAATTTCAGTCTCGAGACGTGCTAG | 0.826
TTAGATCTCAGACTGGGTTAGTGCTAG | -0.332
AAATATATACAAACTAAGGATGTGCTA | -0.812
TTAGGTCTCGGTCTCGGTAAGTGCTAG | 0.622
CACACTTTCCCCTTCCTAGTGTGCTAG | 5.39
TTAGGTCGCCTACTGCTTTAGTGCTAG | 0.319
TCAACTCTCTAATTTTGAGAGTGCTAG | 0.129
TCATGTTTTGTTTTTCAACTGTGCTAG | 3.3
TTAGGTATCGGACTGGGTTCGTGCTAG | 0.151
TACGATTTCGGGTTTCGAGACGTGCTA | 5.55
TCATAATTTACTTTGGTACTGTGCTAG | 0.724
GACGATTTCTGTTTCGAGACGTGCTAG | 5.02
TTAGATTTCAGTCCCGATTAGTGCTAG | 0.764
GACGGGCTGCTTCTCCTGACGTGCTAG | -0.363
ATTACTTTAGGTTCCCAGGTGTGCTAG | 1.65
TTGGGTCTCGGTTTCGGTTAGTGCTAG | 6.44
TCAAATTTTGTCATCTAACTGTGCTAG | 0.233

Set 3
Target: RNA binding protein fox-1 homolog 2, RRM domain, GST-SBP tag (RBFOX2, Homo sapiens, UniProt O43251-10, residues 100-194)
Method: RNA Bind-n-Seq
Molecule type: RNA
Matrix: in vitro
Tested at: 365 nM
Notes: natural RNA segment, single round, ends assumed
Reference: no-protein control
Direction: higher = stronger binding
All sequences stand within: GGGAGUUCUACAGUCCGACGAUC … UGGAAUUCUCGGGUGCCAA
Residues (chain): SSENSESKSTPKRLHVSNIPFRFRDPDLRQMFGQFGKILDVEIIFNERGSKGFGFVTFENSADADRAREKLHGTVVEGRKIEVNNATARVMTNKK
Strand | RBNS enrichment (R)
UCUUCCCAGCACUUCCCUGCCUCCCCCAGGCCUCAGGCCCAGCACCCAGUUCCUCCUCACAUGGCAGGUGAGCACAGACUUCUAGUUGGCAGGAGCUGAGGAGGGUGAAC | 0.83
UGGAUGGGUAAUUUUUAUUUCUGAUACGCAUCUUUAGAGUCAAAUAUAUCUUUUCCCUGUACUCCUCAUGUACAACCAAAGAACAUACAUUAUGAAAAUUGUAUUAUAAU | 2.39
CUGUGCCCGUGUCAGCUCCUGGGGAGACCUUUUACCUGUGAUCGCUCCAUCCGAGUUUCCUCCUUCGUCCCCUGAUGAAGAGCCCCCUGAGAAUUGACAAGGAUGUAGAA | 1.97
UACCAAAAUGAGAGAUCAGCAAGAUUUCCCAAGAUAGGAGAAUCCUCCUGCUGCCUGCGUGGGAGAAAGUAGGGGAGGAGUCCAAACCAGGCCACCAGAGAUGGUUGAGA | 1.15
UAGCCAGGAAAAUAGGAAUCCCUGGUGGGUUUCUGAUUCCUGUGCUGAGAAGGAGAGUCACAGGUCCUGGAGAUAGAAAUGGAGGUGGCCUGCUGAUAAGAUACCUGCUG | 0.697
GAUACUGGACAGAUGGAUUCUGGUGUGGGGAAAGCACAGAUACUGGACAGAUGGAUUCUAGUGUGACUUGUGACUGUGAGGUUUCCUAUAACAUAUUUAUAAAUGUUACU | 0.645
CAGCUUGGGCCCAGACUCCUCCGCUGUGUAGCAGAUGAGGAAAAUCAGGCCAGAGGACAACAGGCUGGCGUUUUGUUGGGAACUGAAGAGGAAUCUGUUGAACACAGCGA | 0.613
CUCGAUGGACGAUCUCAGCCUUGAGCCCCACGAGGAGCUUGCUUGCUGGGCUCAUCCUGUCUCCCCUGACAACUGUGACUUCUCCUGGAGAGGCCUGUGCACUGCUGAAG | 0.453
AAGAGUGCAGAGCUCUCCCCAGCCCCGUGGGUGGUGACUUUGUUUUCCUGCGGGGCUCAGCCCCCUCCAGGAUGCAGCCCCCUCCCCCGCACCCCGGAACCGGCGUCGCU | 0.222
GGGACGAUGCUUCCUCUCAUCCAAAACACAUGCAGAGUCACAUCCUCAUCCUAGUGUUUGGCAGUUUGAGACCGCUACCCUGAACUUAAGAGCUUUAAAUAUGAGGGUUG | 0.612
UGCAAUUAAGGUUGAUUACUUAUAAAUAUGAACUUUGGAUCACUGUAUAGACUGUUAAAUUUGAUUUCUUAUUACCUAUUGUUAAAUAAACUGUGUGAGACAGACACCUG | 0.728
AGUAAAGUAAAAAACCUAUUAAAUUGAGGCUAGAGCUGGAGAUGUAAUUGGUUUUUGAGAAACAUUAGUAUAAAGCUUGCCCUUGUUGUGUGGAAGAAGCCAUUUUGUAC | 0.561

Set 4
Target: ABI1, truncated, D143A, DHFR fusion (Arabidopsis thaliana)
Method: DHFR PCA, deep sequencing
Matrix: yeast
Notes: methotrexate growth selection, single substitutions
With: (+)-ABA 17 µM
Reference: wild-type fitted maximum
Direction: higher = stronger binding
Starting sequence: PYL1, truncated, DHFR fusion (Arabidopsis thaliana); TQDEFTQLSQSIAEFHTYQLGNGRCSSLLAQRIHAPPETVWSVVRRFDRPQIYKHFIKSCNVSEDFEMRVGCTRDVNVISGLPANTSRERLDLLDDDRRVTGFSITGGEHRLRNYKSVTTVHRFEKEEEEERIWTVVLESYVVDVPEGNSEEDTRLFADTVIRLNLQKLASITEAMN
Change | relative binding score [%]
R155L | 60.5
T86Y | 77
L164T | 96.7
L94I | 82.3
T39N | 69.2
E64A | 84.4
R69P | -9.44
H16G | -3.18
V136M | 103
V78D | 5.92
N61T | 91.4
D153Q | 47.1
H110Y | 10.1
T106W | 50.1
S59F | 43.2
N61M | 86.7
G107A | 62.5
L82N | -1.49
S26T | 84.8
V136H | 24.3
N85H | 76.4

Set 5
Sequence: ALLRRLQDVANDRGSH
Organism: Saccharomyces cerevisiae
Observed: binding
Method: competitive growth deep sequencing
Molecule type: peptide
Tested at: concentration not given
Direction: direction not given
test system | conditions | growth enrichment score
cyclin E1-Cln2 fusion strain | peptide tiling library | 0.0339
cyclin D3-Cln2 fusion strain | tiling library, Cln2 subtracted | 4
cyclin E1-Cln2 fusion strain | tiling library, Cln2 subtracted | 0.0339

Set 6
Target: PABPC1L2, full length, GST fusion (mouse, UniProt A0ABA7IW68)
Method: RNAcompete
Molecule type: RNA
Matrix: in vitro
Tested at: 20 nM
Notes: 7-mer, probes averaged, single round
Reference: mean of 7-mers
Direction: higher = stronger binding
Strand | 7-mer Z-score
GGUGGAA | 0.292
GAAAUUG | 0.709
ACUCUUC | -0.472
UUCACCC | -0.438
AUCUUCU | -0.324
GGCCGAA | 0.0696
GUCCACC | -0.376
GUUUUCU | -0.36
AUUGCCU | -0.151
ACGCCUU | -0.329
UGCACGC | -0.171
CUGACGU | -0.186
GCGCCUA | -0.306
CCUACCA | -0.184
UUCCUCA | -0.452
UCUUCUU | -0.516
AGCCAUU | -0.182
GUGCUUC | -0.267
GACCGUC | -0.313
GACCAGU | -0.146
GUAUACA | 0.1
UCGAUCA | -0.00108
CCUUGCU | -0.364
GCCUUCA | -0.365
GGGUCCC | -0.222

A few entries again (set 3):
Strand | RBNS enrichment (R)
AGUAAAGUAAAAAACCUAUUAAAUUGAGGCUAGAGCUGGAGAUGUAAUUGGUUUUUGAGAAACAUUAGUAUAAAGCUUGCCCUUGUUGUGUGGAAGAAGCCAUUUUGUAC | 0.561
UACCAAAAUGAGAGAUCAGCAAGAUUUCCCAAGAUAGGAGAAUCCUCCUGCUGCCUGCGUGGGAGAAAGUAGGGGAGGAGUCCAAACCAGGCCACCAGAGAUGGUUGAGA | 1.15
UGCAAUUAAGGUUGAUUACUUAUAAAUAUGAACUUUGGAUCACUGUAUAGACUGUUAAAUUUGAUUUCUUAUUACCUAUUGUUAAAUAAACUGUGUGAGACAGACACCUG | 0.728
CUGUGCCCGUGUCAGCUCCUGGGGAGACCUUUUACCUGUGAUCGCUCCAUCCGAGUUUCCUCCUUCGUCCCCUGAUGAAGAGCCCCCUGAGAAUUGACAAGGAUGUAGAA | 1.97
UGGAUGGGUAAUUUUUAUUUCUGAUACGCAUCUUUAGAGUCAAAUAUAUCUUUUCCCUGUACUCCUCAUGUACAACCAAAGAACAUACAUUAUGAAAAUUGUAUUAUAAU | 2.39
GAUACUGGACAGAUGGAUUCUGGUGUGGGGAAAGCACAGAUACUGGACAGAUGGAUUCUAGUGUGACUUGUGACUGUGAGGUUUCCUAUAACAUAUUUAUAAAUGUUACU | 0.645
CUCGAUGGACGAUCUCAGCCUUGAGCCCCACGAGGAGCUUGCUUGCUGGGCUCAUCCUGUCUCCCCUGACAACUGUGACUUCUCCUGGAGAGGCCUGUGCACUGCUGAAG | 0.453
UCUUCCCAGCACUUCCCUGCCUCCCCCAGGCCUCAGGCCCAGCACCCAGUUCCUCCUCACAUGGCAGGUGAGCACAGACUUCUAGUUGGCAGGAGCUGAGGAGGGUGAAC | 0.83
AAGAGUGCAGAGCUCUCCCCAGCCCCGUGGGUGGUGACUUUGUUUUCCUGCGGGGCUCAGCCCCCUCCAGGAUGCAGCCCCCUCCCCCGCACCCCGGAACCGGCGUCGCU | 0.222
